Measured values of several laboratories.
Lines come from different studies, so protocols differ. ± marks the error that the study gave.
ampC: Beta-lactamase (ampC, Escherichia coli K-12, UniProt P00811)

CC(=O)N[C@@H](CCCNC(=N)N)C(=O)N[C@@H](Cc1ccc(O)cc1)C(=O)N[C@@H](CCCNC(=N)NC(=O)NCCCCN)C(=O)N[C@@H](CC(C)C)C(=O)N[C@H](CCCNC(=N)N)C(=O)N[C@@H](Cc1ccc(O)cc1)C(N)=O — Ki (Neuropeptide Y receptor type 5 (NPY5R, Homo sapiens, UniProt Q15761); ligand displacement, radioligand): > 5000 nM
CC(C)=CCCC1(C)C=Cc2c(ccc3cc(-c4cc(O)cc(O)c4CC=C(C)C)oc23)O1 (stereo not shown) — Ki (Acetylcholinesterase (ache, Electrophorus electricus, UniProt O42275); enzyme activity, inhibitor): 1400 nM
Cc1cc(O)cc(C)c1CC(N)C(=O)NC1CCNc2c(C)cc(Cc3ccccc3)cc21 (stereo not shown) — Ki (Kappa-type opioid receptor (OPRK1, Homo sapiens, UniProt P41145); ligand displacement, radioligand; cell membranes): 17 nM
CCCC(=O)c1ccc2c(c1)sc(=O)n2CCCN1CCCCCC1 — Ki (Sigma non-opioid intracellular receptor 1 (Sigmar1, Rattus norvegicus, UniProt Q9R0C9); binding, radioligand binding; rat liver membranes; added: [3H](+)-pentazocine 5 nM): 2.6 ± 0.4 nM
CC[C@H](C)[C@H](NC(=O)CN)C(=O)N[C@H](C(=O)N[C@@H](CC(N)=O)C(=O)N[C@H](C(=O)N[C@@H](CC(C)C)C(=O)N[C@@H](CCC(N)=O)C(=O)N[C@@H](CCCCN)C(=O)N[C@@H](Cc1ccc(O)cc1)C(=O)N[C@@H](Cc1ccc(O)cc1)C(=O)N[C@H]1CSSC[C@@H]2NC(=O)[C@H](CCCCN)NC(=O)[C@H](CCCNC(=N)N)NC(=O)CNC(=O)[C@H](CCCNC(=N)N)NC(=O)[C@H]([C@@H](C)O)NC(=O)[C@H](CO)NC(=O)[C@@H]3CSSC[C@H](NC(=O)[C@H](CCC(N)=O)NC(=O)CNC(=O)CNC(=O)[C@H](CCC(N)=O)NC(=O)[C@H](C(C)C)NC(=O)[C@H](CCCNC(=N)N)NC1=O)C(=O)N[C@@H](C)C(=O)N[C@@H](C(C)C)C(=O)N[C@@H](CC(C)C)C(=O)N[C@@H](CO)C(=O)N[C@@H](CSSC[C@@H](C(=O)N[C@@H](CCCNC(=N)N)C(=O)N[C@@H](CCCNC(=N)N)C(=O)N[C@@H](CCCCN)C(=O)N[C@@H](CCCCN)C(N)=O)NC2=O)C(=O)N[C@@H](CC(C)C)C(=O)N1CCC[C@H]1C(=O)N[C@@H](CCC(N)=O)C(=O)N[C@@H](CCC(=O)O)C(=O)N[C@@H](CCC(=O)O)C(=O)N[C@@H](CCC(N)=O)C(=O)N[C@@H]([C@@H](C)CC)C(=O)NCC(=O)N[C@@H](CCCCN)C(=O)N3)[C@@H](C)O)[C@@H](C)CC — Ki (Melanocyte-stimulating hormone receptor (MC1R, Homo sapiens, UniProt Q01726); ligand displacement in cells): 137 nM
O=C(/C=C/c1ccccc1)c1cc2ccccc2oc1=O — Ki (Amine oxidase [flavin-containing] B (MAOB, Homo sapiens, UniProt P27338); enzyme activity, inhibitor): 500 nM
OB(O)c1cnn(-c2cc(Cl)ncn2)c1 — Ki (ampC; enzyme activity, inhibitor; added: CENTA): 10 nM
CC1C=CC(C)C(C(=O)O)C1C(=O)O (stereo not shown) — Ki (ampC): 400000 nM
C[n+]1cn([C@@H]2O[C@H](COP(=O)([S-])OP(=O)(O)OP(=O)(O)OP(=O)([S-])OC[C@H]3O[C@@H](n4c[n+](C)c5c(O)nc(N)nc54)[C@H](O)[C@@H]3O)[C@@H](O)[C@H]2O)c2nc(N)nc(O)c21 (stereo partly shown) — Ki (mRNA decapping complex subunit 2, with Dcp1 (dcp2, Schizosaccharomyces pombe, UniProt O13828); mRNA decapping, inhibitor; single turnover, free enzyme, added: Dcp1-Dcp2 complex, capped 29-nt RNA): 65000 ± 7000 nM
CC(=O)N(C)[C@@H](Cc1ccccc1)C(=O)N[C@@H](Cc1ccccc1)C(=O)N[C@@H](CC1CCCCC1)C(=O)N[C@@H](CCCNC(=N)N)C(=O)N[C@@H](CC(C)C)C(=O)N[C@@H](CCCNC(=N)N)C(=O)N[C@@H](CCCNC(=N)N)C(=O)N[C@H](C)C(=O)N[C@@H](CCCNC(=N)N)C(=O)N1CCC[C@H]1C(=O)N[C@@H](CCCCN)C(N)=O — Ki (Kappa-type opioid receptor (Oprk1, Rattus norvegicus, UniProt P34975); ligand displacement, radioligand): 7.85 nM

Repeated from above:
C[n+]1cn([C@@H]2O[C@H](COP(=O)([S-])OP(=O)(O)OP(=O)(O)OP(=O)([S-])OC[C@H]3O[C@@H](n4c[n+](C)c5c(O)nc(N)nc54)[C@H](O)[C@@H]3O)[C@@H](O)[C@H]2O)c2nc(N)nc(O)c21 (stereo partly shown) — Ki (mRNA decapping complex subunit 2, with Dcp1 (dcp2, Schizosaccharomyces pombe, UniProt O13828); mRNA decapping, inhibitor; single turnover, free enzyme, added: Dcp1-Dcp2 complex, capped 29-nt RNA): 65000 ± 7000 nM
